# Measured values of several laboratories.
# A part holds a random share of what one study measured.

# Study 1
# Target: Histone acetyltransferase KAT6A, winged helix 1, GST fusion (KAT6A, Homo sapiens, UniProt Q92794, residues 1-85)
# Technique: protein binding microarray
# Molecule type: double-stranded DNA, one strand shown
# Sample: in vitro
# Concentration: not given
# Setting: 8-mer, flanks averaged, mean of 2 arrays, mostly near background
# Baseline: not given
# Direction: higher = stronger binding
# Target sequence (chain): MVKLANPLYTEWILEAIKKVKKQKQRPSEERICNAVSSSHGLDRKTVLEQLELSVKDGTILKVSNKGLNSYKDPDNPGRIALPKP
Strand,E-score
CACCGTTC,0.0608
AAAAGAAT,-0.0564
AATGGAGA,-0.0872
GTGCTCCA,-0.161
AGTATATG,-0.156
AACAGGCT,-0.129
ACACCTTG,-0.193
GAGTATTA,-0.0399

# Study 2
# Target: Sal-like protein 4, full length isoform A (SALL4, Homo sapiens, UniProt Q9UJQ4, residues 1-1053)
# Chain of UniProt Q9UJQ4 (whole entry, looked up): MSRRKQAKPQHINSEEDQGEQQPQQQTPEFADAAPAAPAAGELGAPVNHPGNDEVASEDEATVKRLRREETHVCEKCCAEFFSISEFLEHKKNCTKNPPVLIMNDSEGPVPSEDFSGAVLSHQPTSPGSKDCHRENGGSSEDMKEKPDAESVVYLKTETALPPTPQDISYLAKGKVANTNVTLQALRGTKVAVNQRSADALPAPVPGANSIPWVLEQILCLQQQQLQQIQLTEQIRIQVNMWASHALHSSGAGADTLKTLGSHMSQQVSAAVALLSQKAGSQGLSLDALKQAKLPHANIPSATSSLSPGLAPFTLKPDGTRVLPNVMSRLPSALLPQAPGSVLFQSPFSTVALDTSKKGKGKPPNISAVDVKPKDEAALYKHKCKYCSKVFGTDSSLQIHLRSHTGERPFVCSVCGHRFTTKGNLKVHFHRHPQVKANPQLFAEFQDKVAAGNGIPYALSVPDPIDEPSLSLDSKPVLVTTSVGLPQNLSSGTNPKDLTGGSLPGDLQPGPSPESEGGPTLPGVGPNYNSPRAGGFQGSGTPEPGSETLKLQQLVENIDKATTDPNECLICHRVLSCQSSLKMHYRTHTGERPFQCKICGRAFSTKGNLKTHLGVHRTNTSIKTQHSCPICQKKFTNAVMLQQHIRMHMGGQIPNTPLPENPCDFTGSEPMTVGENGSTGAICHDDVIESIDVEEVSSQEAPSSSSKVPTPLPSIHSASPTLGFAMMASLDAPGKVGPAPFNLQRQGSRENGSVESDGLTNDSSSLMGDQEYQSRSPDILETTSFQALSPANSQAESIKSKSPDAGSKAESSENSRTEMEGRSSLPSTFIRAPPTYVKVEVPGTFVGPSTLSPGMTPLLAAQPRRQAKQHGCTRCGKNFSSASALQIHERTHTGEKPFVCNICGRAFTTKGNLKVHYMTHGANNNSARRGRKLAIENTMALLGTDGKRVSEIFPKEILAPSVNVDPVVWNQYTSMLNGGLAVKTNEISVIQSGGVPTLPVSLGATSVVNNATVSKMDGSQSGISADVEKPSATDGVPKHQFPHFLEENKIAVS
# Technique: universal PBM
# Molecule type: double-stranded DNA, one strand shown
# Sample: in vitro
# Concentration: 600 nM
# Setting: 8-mer, flanks averaged, mean of replicates
# Direction: higher = stronger binding
Strand,E-score
AGTTAGCG,0.0218
AATCCACT,0.0279
ATGATTTA,0.303
AATTGGCC,-0.0517
AAGTGACC,-0.269
ACCGCTGG,-0.226
AGTTATCC,0.0638

# Study 3
# Target: RNA binding protein fox-1 homolog 2, RRM domain, GST-SBP tag (RBFOX2, Homo sapiens, UniProt O43251-10, residues 100-194)
# Technique: RNA Bind-n-Seq
# Molecule type: RNA
# Sample: in vitro
# Concentration: 365 nM
# Setting: natural RNA segment, single round, ends assumed
# Baseline: no-protein control
# Direction: higher = stronger binding
# Constant ends, left off below: GGGAGUUCUACAGUCCGACGAUC … UGGAAUUCUCGGGUGCCAA
# Construct (chain): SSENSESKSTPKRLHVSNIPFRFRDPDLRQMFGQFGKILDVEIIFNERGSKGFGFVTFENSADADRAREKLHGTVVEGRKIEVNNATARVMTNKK
Strand,RBNS enrichment (R)
UAAUGAAUCCUGGGACAUACUGAUGACUAUAAACUGGCCUCUCUGAGUCAUAGAAAAAUGGCCUUAUUUCUCCAGAAGUGAGUAAACCACACUUCCAGGCUAUCUGAACU,0.33
CAGUGUCUGUAGGAGUCGGCCUCACAAGCUGAUGAAGCAGCUGUACGCCUAGUAGAGCUCGGUGGUGACGCUCCCUUACUCUUAGAUGAAUCAGUAGCUGUGAAAAUAAC,0.31
CAUGGUAGUGGCAAAGAGAGGUCCAGAGUCCUGGCCCUUGAUGCCCAGCUCAGUGCCACAAAGCUCAAUAGGAGGGAUGUUCCAGUGGAUGAGGGCCACCAGGAAGCACA,0.808
AGUUUGUACUGGAGAACCAUACAGGACUUACCGCACCUUACCCCAUCCACUACCAUGUGCACUGACUGGCCUCAUUUUAUGAAGGAAGAGACAGGACCAGAGAGGCGAUG,0.234
AGCUAAGCAGUGUAUUUUAAUCGAAGAAGAAACCAAAAUCUGUUCUAAGAACUGGGGUUCUAUACCUCUGUAGGCCCUUUAUUGAACAGCAUUAUUCACUAGAUGCAAAG,0.689
UGUUCCAGGGUCGGGAGUCUAGGGUUGAGCACAACAUGACGUUUAAUUUCCUUUGACUUUUGUGGCGCAUAGGAGUCCGUGUUUAUCUUCUCGAUUUUGUUCUGAGGGUU,0.432
GCCAUGUGUUAAUUGUUAAAUAAAUUCUCCAAAGGGCUAAAAGUAAAUUACUUAUAAAUUUUUUAUAGUUGUAUUUUUGACCUGCCUUUUAUAUGUAUGAAUAUUUCAUA,1.13

# Other studies, line by line
Molecule,target,assay,test system,setting,how to read,endpoint,result
"PhoQ, residues 284 288 289 292 302 303 TSTLRA","PhoP, residues 12 14 15 18 19 SHWTV (Escherichia coli, UniProt P23836)","Sort-seq, measured: YFP reporter",E. coli,"PhoQ-PhoP variant library, with: 10 µM Mg2+","baseline: high Mg2+ state, higher = stronger signaling",fold induction,5.26

# Excerpt of the above (study 2):
Strand,E-score
ACCGCTGG,-0.226
AGTTAGCG,0.0218
